Results collected from several papers.
Lines come from different studies, so protocols differ. ± marks the error that the study gave.

SMILES	cell line	assay	system	conditions	IC50 [µM]
[Ru+2].c1ccc(-c2cccc(-c3ccccn3)n2)nc1.c1ccc2nc(-c3ccc4ccccc4n3)ccc2c1.c1ccncc1	HL-60	cell viability	–	with: light 22 J/cm^2	11 ± 0.2
Clc1ccc(C=[N+]2N=C(Nc3ccccc3)[S][Pd-]2([Cl])[Cl])s1	HEL human lung fibroblasts	cell proliferation	–	–	42.8
CN(C)C1=[S+][Au-2]2([S]1)[c]1ccccc1-c1cccc[n+]12.F[P-](F)(F)(F)(F)F (stereo not drawn)	UWB1289	cell growth or viability, MTT	–	72 h	2.69
CSc1nc(Nc2cccc(/C(C)=N/NC(=O)c3ccccc3Cl)c2)c(C#N)c(-c2ccccc2)n1	HCT-116 and MCF7	cell growth, MTT	–	range over compound group	1.14 to 10.3
N=C(N/N=C/c1ccccc1)N/N=C/c1ccccc1	hTERT-HPNE	cell growth, crystal violet	–	72 h	62.9 ± 7.5
COc1ccc2cc([C@H](C)C(=O)[O][Pt]([NH2])([NH2])([Cl])([Cl])[O]C(=O)[C@@H](C)c3ccc4cc(OC)ccc4c3)ccc2c1	CT26	cell growth, MTT	–	48 h	0.32 ± 0.07
CC1CCC(NC(=O)N(C)c2cnc3ccc(-c4ccc(OCCCCCC(=O)NO)nc4)cc3n2)CC1 (stereo not drawn)	Hs 1.Tes normal testicular	cell growth, MTT	–	48 h	> 10
C=CC(=O)Nc1ccc(-c2c(-c3ccc(OC)cc3)c3c(N)ncnc3n2C)cc1	JMSU-1	cell growth or viability, ATP luminescence	–	96 h	0.081
CC(C)=CCC1=C(O)c2c(occ(-c3ccc(O)cc3)c2=O)C(CC=C(C)C)(CC=C(C)C)C1=O	KKU100	cell growth or viability, MTT	–	24 h	22.4
CN1CCC(N[C@@H]2CCc3[nH]c4c(C(N)=O)ccc(-c5ccccc5Cl)c4c3C2)CC1	colorectal cancer organoid sample D	cell growth, CellTiter-Glo	–	6 days	0.0084
CCCCCCCCCCCCN(CCCCCCCCCCCC)C1=[S+][Au-2]2([S]1)[c]1ccccc1-c1cccc[n+]12.F[P-](F)(F)(F)(F)F (stereo not drawn)	UWB1289	cell growth or viability, MTT	–	72 h	22.9
C=CC(=O)N1CC=C(c2c(-c3ccc(Oc4cccc(C)n4)cc3)c3c(N)ncnc3n2C)C1	JMSU-1	cell growth or viability, ATP luminescence	–	96 h	0.37
O=C1NCC(Cc2ccccc2)N(CC2CCCN2CC(CC2CCCCC2)N2CC(Cc3ccc(O)cc3)N(CCc3ccccc3)C(=O)C2=O)C1=O (stereo not drawn)	oligodendrocyte precursor cells	viability	–	72 h	> 10
CSc1nc(Nc2ccc(/C(C)=N/NC(=O)c3ccccc3Cl)cc2)c(C#N)c(-c2ccccc2)n1	HCT-116 and MCF7	cell growth, MTT	–	range over compound group	9.25 to 15.3
CC(=O)Oc1ccccc1/C=C/C(=O)Nc1nc(=O)n([C@@H]2O[C@H](C)[C@@H](OC(C)=O)[C@H]2OC(C)=O)cc1F	ASPC1	cell growth or viability, MTT	–	72 h	69.3
Cc1cc2nc(-c3ccc4c(c3)CN([C@H]3CCC(=O)NC3=O)C4=O)ccn2n1	MOLM-13	cell growth, CellTiter luminescence	–	72 h	> 0.1
Cc1cc(-c2ccccc2)c2ccc3c(-c4ccccc4)cc(C)nc3c2n1.[Cl-].[Cl-].[Ru+2].c1ccc(-c2ccccn2)nc1.c1ccc(-c2ccccn2)nc1	rat bone marrow MSCs	cell viability	–	dark	52 ± 13
C=C(C)[C@H]1CC[C@@]2(C)CC[C@]3(C)C[C@H]4[C@@H](C)C[C@@]5(O)OC(=O)/C(=C/C[C@H]3[C@H]12)[C@@H]45	CT26	cell growth or viability, MTT	–	72 h	14
CSc1nc(Nc2cccc(/C(C)=N/NC(=O)c3ccc([N+](=O)[O-])cc3)c2)c(C#N)c(-c2ccccc2)n1	HCT-116 and MCF7	cell growth, MTT	–	range over compound group	1.14 to 10.3
N[C@@H](CNC(=O)c1ccc2[nH]c(C(=O)c3ccc(O)cc3)nc2c1)C(=O)O	SNU-1 (KRAS G12D)	cell viability, CellTiter-Glo	–	72 h	> 300
COc1cc(/C=C/C(=O)/C=C(O)/C=C/c2ccc(OCC(=O)N3CCOCCOCCOCCOCC3)c(OC)c2)ccc1OCC(=O)N1CCOCCOCCOCCOCC1	U-251	cell growth or viability, SRB	–	–	5.9
O=C(CN1C(=O)S/C(=C\c2ccccc2Br)C1=O)Nc1ccc(C(=O)Nc2ccc(F)cc2)cc1	HT-29, A549, HCT-116	cell growth, MTT	–	range over cell lines	9.17 to 47.2
C=C1[C@@H]([C@@]2(C)C=CC(=O)C(C)(C)[C@@H]2CC(=O)OC)[C@@H](OC(C)=O)[C@H](OC(C)=O)[C@@]2(C)[C@H](c3ccoc3)C[C@H]3O[C@]132	HEp-2	cell growth or viability, MTT	–	48 h	68.1
COCCOCCOCCOc1ccc(/C=C/c2c(I)c(C)c3n2[B-](F)(F)[N+]2=C(C)C(I)=C(C)C2=C3c2cc(OC)cc(OC)c2)cc1	HEp-2	cell growth or viability, resazurin	–	24 h, dark	> 400
CC(C)=CCc1c(O)cc2oc3cc(O)c(O)c(CC=C(C)C)c3c(=O)c2c1O	BEAS-2B	cell growth or viability	–	–	7.43
CCOC(=O)c1[nH]c(C)c(/C=C/C2=[N+]3C(=C(c4cc(OC)cc(OC)c4)c4c(C)c(I)c(/C=C/c5c(C)[nH]c(C(=O)OCC)c5C)n4[B-]3(F)F)C(C)=C2I)c1C	HEp-2	phototoxicity, CellTiter-Blue	–	with: light 1.5 J/cm^2	> 100
Cc1ccc(CC(=O)N(CCCn2ccnc2)c2nc3ccccc3s2)c(C)c1	HCT-116 3D tumour organoids	cytotoxicity	0.4% DMSO	72 h, 2% Matrigel	19.9
CCOC(=O)c1[nH]c(C)c(/C=C/c2c(I)c(C)c3n2[B-](F)(F)[N+]2=C(C)C(I)=C(C)C2=C3c2cc(OC)cc(OC)c2)c1C	HEp-2	phototoxicity, CellTiter-Blue	–	with: light 1.5 J/cm^2	4
C/C1=C/C[C@H]2[C@@H]3[C@@H]([C@]4(C)CO4)CC[C@@]3(C)CC[C@]2(C)C[C@H]2[C@@H](C)CC[C@@H]12	CT26	cell growth or viability, MTT	–	72 h	60
[Ru+2].c1ccc(-c2cccc(-c3ccccn3)n2)nc1.c1ccc2nc(-c3nc4ccccc4s3)ccc2c1.c1cnccn1	HL-60	cell viability	–	with: light 22 J/cm^2	27.6 ± 3.4
